Published values from different studies.
Each line is one published result; not all experiments were run side by side. ± gives the spread as reported.

Compound	test	test system	conditions	remaining compound
Fc1cc(Cl)c(Nc2ccc(F)cc2Cc2nnn[nH]2)c(Cl)c1	glucuronidation	human liver microsomes	30 min, with: UDPGA	99 ± 3%
CC(C)OC(=O)[C@H](CCC(=O)C=[N+]=[N-])NC(=O)OCOC(=O)C(C)(C)C		mouse plasma	10 µM, 60 min, 37 °C	0%
CN1C(=O)N[C@H]2[C@@H]3NC(=O)c4ccc(C(F)(F)F)n4[C@@H]3C[C@]21O	LC-MS	human AB serum	50 µM, 24 h, 37 °C	65 to 90%
O=C(CCc1ccccc1)N[C@H]1CNC1=O		phosphate buffer, 10% MeCN	1 µM, 24 h, pH 5.0, 37 °C	97%
CC(C)OC(=O)[C@H](CCC(=O)C=[N+]=[N-])NC(=O)OC(OC(=O)C(C)(C)C)c1ccccc1 (stereo partly shown)		swine plasma	10 µM, 60 min, 37 °C	83 ± 1%
CCc1cn([C@@H]2O[C@H](CO)[C@@H](O)[C@H]2O)c2ncnc(C)c12		mouse liver microsomes	60 min, with: NADPH	94%
O=C(O)Cc1cc(F)ccc1Nc1c(Cl)cc(F)cc1Cl	glucuronidation	human liver microsomes	30 min, with: UDPGA	57 ± 3.2%
CCCCCCCCC(=O)N[C@H]1CNC1=O		phosphate buffer, 10% MeCN	1 µM, 24 h, pH 5.0, 37 °C	98%
O=S(=O)(O)Cc1ccccc1Nc1c(Cl)cccc1Cl	glucuronidation	human liver microsomes	30 min, with: UDPGA	111 ± 7.6%
C/C=C(/C)C(=O)O[C@H]1C(C)=C[C@]23C(=O)[C@@H](C=C(CO)[C@@H](O)[C@]12O)[C@H]1[C@@H](C[C@H]3C)C1(C)C		phosphate buffer 30% acetonitrile	100 µM, 2 h, pH 7.4, 37 °C	~63%
